Measured values from different studies.
Every numbered part comes from another study and shows a few of its results, in no order.

Set 1
Target: Interferon regulatory factor 7, full length, phosphomimetic (IRF7, Homo sapiens, UniProt Q92985, residues 1-503, S471D/S472D/S475D/S476D/S477D/S483D/S484D/S487D)
Method: protein-binding microarray
Molecule type: double-stranded DNA, one strand shown
Matrix: in vitro
Tested at: 2200 nM top
Setting: 60-bp whole probe
Together with: salmon DNA 0.4 mg/ml
Relative to: random background probes
Direction: higher = stronger binding
Measurement: fitted relative affinity
Constant ends, left off below: GCCTAGCAC … GTCTTGATTCGCTTGACGCTGCTG
Target sequence (chain): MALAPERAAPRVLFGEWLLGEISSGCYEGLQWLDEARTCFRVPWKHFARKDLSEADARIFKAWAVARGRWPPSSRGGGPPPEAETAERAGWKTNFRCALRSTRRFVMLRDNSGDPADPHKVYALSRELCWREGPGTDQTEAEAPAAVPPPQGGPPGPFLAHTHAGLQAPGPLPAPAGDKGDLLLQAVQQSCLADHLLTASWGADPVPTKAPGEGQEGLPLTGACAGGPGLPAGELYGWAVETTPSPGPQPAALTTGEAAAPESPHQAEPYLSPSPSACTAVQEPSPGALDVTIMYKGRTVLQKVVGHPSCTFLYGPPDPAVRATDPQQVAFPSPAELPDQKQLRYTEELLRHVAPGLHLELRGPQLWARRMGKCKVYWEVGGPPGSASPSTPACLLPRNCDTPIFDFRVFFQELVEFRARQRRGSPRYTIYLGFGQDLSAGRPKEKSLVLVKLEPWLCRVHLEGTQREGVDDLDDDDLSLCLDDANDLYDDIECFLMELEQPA
Strand = GACGGACTGGGTTTCGTGACGTGCTAG; result = 0.419 z-score
Strand = TCTACTTCTCTTTTTGCTTTGTGCTAG; result = 3.46 z-score
Strand = TGGAGAGTAGCTTTCTGAGGGTGCTAG; result = -0.252 z-score
Strand = TTAGGTCTCGGAATGGGTTAGTGCTAG; result = 0.155 z-score
Strand = GACGATTTCGGGCATCGAGACGTGCTA; result = 0.866 z-score
Strand = GACGGTTTCCTTCTCCTTACGTGCTAG; result = 3.19 z-score
Strand = GACGATATCGGGTTTCGACACGTGCTA; result = 1.38 z-score
Strand = GACGATTTCGGGACTGGGGACGTGCTA; result = 1.28 z-score
Strand = TCATTTTTTTCATTATTACTGTGCTAG; result = 2.94 z-score
Strand = TTTATTTTCAGTATTACCTCGTGCTAG; result = 3.84 z-score
Strand = GACGGACGGGACTATCGGGACGTGCTA; result = -1.03 z-score
Strand = GACGGGTTCCTTTCCCTGACGTGCTAG; result = 1.46 z-score
Strand = GACGGTTCCGGGACTGGGGACGTGCTA; result = 0.00597 z-score
Strand = GGGTGGGAGCCGAAGACGCCGTGCTAG; result = -1.33 z-score
Strand = TTAGGTTTCGGGTACCGGTTAGTGCTA; result = 5.52 z-score
Strand = GAAGGTATCGACACTGGGGACGTGCTA; result = -0.36 z-score
Strand = TCATACTTCTCTTTTTGACTGTGCTAG; result = 1.67 z-score
Strand = GATGGACTGCTTATCCTGACGTGCTAG; result = 0.409 z-score
Strand = GACGATATCGCGACTGGAGACGTGCTA; result = 0.37 z-score
Strand = TTAGGTATCGACTATGGGTTAGTGCTA; result = 0.0648 z-score
Strand = GACGATATCAGACCGGAGACGTGCTAG; result = 0.199 z-score
Strand = AGTTCTAAGGATTTCAGTTTGTGCTAG; result = 0.804 z-score
Strand = TCAAGTTTTGAGCTCTGACTGTGCTAG; result = 0.47 z-score
Strand = TCATGTCTGTTTTTGCTACTGTGCTAG; result = 1.71 z-score
Strand = TTAGAACTGTGGACTGGATTAGTGCTA; result = -0.554 z-score

Set 2
Target: Max-binding protein MNT, bHLH-zipper, MAX partner unstated (MNT, Homo sapiens, UniProt Q99583, residues 220-300)
Method: protein-binding microarray
Molecule type: double-stranded DNA, one strand shown
Matrix: in vitro
Tested at: not given
Setting: k-mer, scored over probes, only values ≥0.25
Direction: higher = stronger binding
Measurement: E-score
Construct (chain): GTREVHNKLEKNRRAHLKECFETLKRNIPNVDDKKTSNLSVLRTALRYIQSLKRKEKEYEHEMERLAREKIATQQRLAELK
Strand = GGCGGGAC; result = 0.254
Strand = CGTGGGGA; result = 0.366
Strand = ACGAGGGA; result = 0.351
Strand = CTCGTGCC; result = 0.399
Strand = CGTGTCCC; result = 0.343
Strand = GCATGTAC; result = 0.382
Strand = AGGCGGGG; result = 0.319
Strand = CGGCATGA; result = 0.276
Strand = CAGACCCC; result = 0.272
Strand = GGGCGTGA; result = 0.299
Strand = CCCCGTGC; result = 0.393
Strand = CATGCGGG; result = 0.412
Strand = GGGTGGGA; result = 0.396
Strand = ACCATGTG; result = 0.484
Strand = CAACATGA; result = 0.258
Strand = ATGGGTGG; result = 0.301
Strand = ACCACGTG; result = 0.498
Strand = CAACACGC; result = 0.41
Strand = CATGGACC; result = 0.259
Strand = GCACGCCA; result = 0.323
Strand = GTGGACAC; result = 0.262
Strand = CAGCACGA; result = 0.338
Strand = CCCGCCTC; result = 0.27
Strand = CAACATGC; result = 0.353
Strand = ACCCCAAA; result = 0.263

Set 3
Target: RING finger protein unkempt homolog, zinc fingers 1-6, GST-SBP tag (UNK, Homo sapiens, UniProt Q9C0B0, residues 30-357)
Method: RNA Bind-n-Seq
Molecule type: RNA
Matrix: in vitro
Tested at: not given
Setting: RNA with constant flanks, human-mouse chimeric sites, ends assumed
Relative to: input RNA pool
Direction: higher = stronger binding
Measurement: bound/input enrichment
Residues (chain): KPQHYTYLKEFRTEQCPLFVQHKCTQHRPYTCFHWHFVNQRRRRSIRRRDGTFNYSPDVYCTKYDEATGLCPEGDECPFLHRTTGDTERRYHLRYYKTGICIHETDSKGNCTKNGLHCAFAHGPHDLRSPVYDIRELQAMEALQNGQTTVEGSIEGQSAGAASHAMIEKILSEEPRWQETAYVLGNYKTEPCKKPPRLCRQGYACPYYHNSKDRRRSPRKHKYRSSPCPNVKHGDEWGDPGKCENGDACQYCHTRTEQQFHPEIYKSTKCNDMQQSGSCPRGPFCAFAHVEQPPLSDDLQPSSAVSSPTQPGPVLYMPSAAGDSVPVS
Strand = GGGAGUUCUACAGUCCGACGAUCAUGGAACAUUUCGAUGCAUCACUUAGUACCUAUUUCAAGGCCUUCCUAGGCCCUCGAGAUACAAGAGUCAAAGGAUGGUUCCUCCUGGACAAUUACAUCCCUACGUUUGUCUGUUCUGUUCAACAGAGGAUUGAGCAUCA; result = 0.187 ratio
Strand = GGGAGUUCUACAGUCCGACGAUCUAAGUUAUUUUGUACAGCUUUGUAAAUUCUUAACAUUUUUAUAUUGCCAUGUUUAUUUUGUUUGGGUAAUUUGGUUCAUACAUGGCCUAGCUAAGGUACAUCUUUCAUUUUUCAGUAAUUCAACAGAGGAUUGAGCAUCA; result = 3.54 ratio
Strand = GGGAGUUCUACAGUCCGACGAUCAACAGAUUGUCUUUAAGCAUUCCAAGCAAUGCUUGGGGGGUGAUCAUUGUUGCCCAUGUGCCUUCUGACUGAGCUUUAAUGCUGUUCCAUGUUACAUCUUUCCUUCACUCCAGAAUUGUUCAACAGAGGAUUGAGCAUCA; result = 0.164 ratio
Strand = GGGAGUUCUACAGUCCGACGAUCCUGUGACCACAAGAUCCUACCUGAGUGGCAGCUGAAGUUGACUCCCUCUCCUUGCCUGCCUAGUUUCCCACUGCCCCCCCAUCCCCCGCAGAAUUCCGAGAUGUUGCCUCUGCACGGUUCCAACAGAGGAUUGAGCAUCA; result = 1.18 ratio
Strand = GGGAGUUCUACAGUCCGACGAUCCACACCCUCUUCUGCGGCACCCUCAUUUUGCAGGCCCGGGCCUAUGUGGGACCGCACGUCCUGGCAGUGGUGACCCGCACAGGGUUCUGCACGGCAAAAGGGGGCCUGGUGAGCUCCAUCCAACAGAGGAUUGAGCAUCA; result = 0.144 ratio
Strand = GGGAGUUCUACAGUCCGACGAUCUUUCUACUGCAGCAAACCAUGCUACGAAUUAAGGAUCCUAAGAAGUCCCUGGAUUUUUAUACGAGGGUUCUUGGACUGACGCUAAUCCAGAAGCUUGACUUCCCUGCUAUGAAGUUCUCGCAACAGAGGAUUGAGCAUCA; result = 0.0631 ratio
Strand = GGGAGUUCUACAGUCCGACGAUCCCAAUUGUGGAGCAGUACUUGAAGACAAAGAAAAAUUCUAGUCAUUUAAUCAUCAAGUACAUUAGCUGCCGCCUGCUGACACUCAUCAUUAUACUGUUAGCGUGUAUCUACCUGGGCUAUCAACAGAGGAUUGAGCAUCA; result = 0.593 ratio
Strand = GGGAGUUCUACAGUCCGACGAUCGAUAAGAAAAGCUUGUUGGAGACCCGCUUGCAUGUCACUGGUAGAGACCUGAGGUGUCAAAUAGCUGAAACUUUCGGACUUCAAGAAAAUUACAUCAAAAUUGUCAUAAAUAAGAAACAGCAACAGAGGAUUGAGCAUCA; result = 0.437 ratio
Strand = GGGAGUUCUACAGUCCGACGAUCAAAUCAUGUGUGUCCAAUAUUGAAAGUGCUUUAUCUACACUCCAGUAUGUAAGCAGCAUAGUAGUUUCUUUAGAGAAUAGGUCAGCCAUUGUAAAGUACAAUGCAAGCUUAGUCACUCCACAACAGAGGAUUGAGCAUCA; result = 9.1 ratio
Strand = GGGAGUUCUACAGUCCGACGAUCCUGUUUUGACAGCCACAAAUUCUUGGCAUGUAUUAAGAAAAAAAAAAAUCCCUGUUGAAGUAGUUUUUCCACCUAUCAGCACUGAGUAAAUGCCAUAACUCCGCGGAAAUGGUCUAAAUACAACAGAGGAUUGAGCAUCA; result = 0.277 ratio
Strand = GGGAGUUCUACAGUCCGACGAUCGCUCUUGGGAAUGUAAUCAGCGCCUUGGGGGACAAGAGCAAGAGAGCCACACAUGUCCCUUACAGAGACUCUAAGCUGACAAGACUCUUGCAGGAUUCCCUUGGGGGUAACAGCCAAACCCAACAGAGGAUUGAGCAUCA; result = 0.125 ratio

Set 4
Target: RNA binding protein fox-1 homolog 2, RRM domain, GST-SBP tag (RBFOX2, Homo sapiens, UniProt O43251-10, residues 100-194)
Method: RNA Bind-n-Seq
Molecule type: RNA
Matrix: in vitro
Tested at: 365 nM
Setting: natural RNA segment, single round, ends assumed
Relative to: no-protein control
Direction: higher = stronger binding
Measurement: RBNS enrichment (R)
Residues (chain): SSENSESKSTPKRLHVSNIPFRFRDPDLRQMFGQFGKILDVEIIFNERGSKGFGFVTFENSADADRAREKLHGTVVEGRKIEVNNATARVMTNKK
Strand = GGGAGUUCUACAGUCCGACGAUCCCCCGAGGACUGUGGCAUUGUCACCUUCACAGCAGACAGAGCUGCCAGGCCAUGAUGGGCUGGCGACAGCCCGGCUGAGCUUCAGUGAGGUGCCACCAGCACCCGUGCCUUGGAAUUCUCGGGUGCCAA; result = 0.205
Strand = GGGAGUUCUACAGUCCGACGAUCUAGGCCUCAGAUUGUGAUGAUCCAGGGAGUUAGCUCCCUAAAUUCUUGGGUGACUGAUGGUUUAACUUGGUAAGUUGUAAUCUUUCCUGAAAGAGGAAGGAGCUGAAGUUUGGAAUUCUCGGGUGCCAA; result = 0.393
Strand = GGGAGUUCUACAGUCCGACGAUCAGAGGGCUGUCACAGGUGAAUGGUUUGGGGAACCCUUCUUGGCAGAGUUUUAGCUGCCUUACUGAACAUUGUCCCAACAGAAAGUUCCUAUCGUUCUCCUUCCUUCUUGGUGGAAUUCUCGGGUGCCAA; result = 0.37
Strand = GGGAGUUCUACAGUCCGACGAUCAAGUUCUUUUUAGCUCAUUCACAAUCACUUGUGUGUUAAGUGUUAAUAUCUGUCAUGAACCUGCCAAUUUGUACGUGUUAAGCAGCUGACAGAUGAUGCAAAAAAAACUAUGGAAUUCUCGGGUGCCAA; result = 2.36
Strand = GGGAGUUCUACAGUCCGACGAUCGGGGGCAACAGGGGCCAGACUCCUCUAGAGGGAGGGUGGCUCUGGGGCCCUGGAAAACGUGAGAGACUGCCCUGAGCUGGUCCAGUGGGCCAGCACUUUAUACCAACUCAUGGAAUUCUCGGGUGCCAA; result = 0.232
Strand = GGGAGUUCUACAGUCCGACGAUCAUGUCAUGGUCUAAACACCAAAAAGUGAUGCCCCGCAUUCCUUCCCUGGAUGGUACCGUUUCUUCUCCGUCUCUCUUUGAUGAUUCUUUGGGACCAAAGUCCUCUCCUUAUGGAAUUCUCGGGUGCCAA; result = 0.202
Strand = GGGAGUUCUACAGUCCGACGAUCGGCUCCUCCUGGGGAGGACUUUUGUCACUCUUCAGCCAAGAAGCAGCUCUGUGCACCUGUGUGUGAUACCUCACACUCGUGCUUUGUCCUCCACUGUCUAUGUAGGUUGUUGGAAUUCUCGGGUGCCAA; result = 0.303
Strand = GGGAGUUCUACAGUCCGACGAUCUCCAGGAGGGACCCUUGGACUUCUUUGUGUGUCCAGUUUGGCCUCCUGCCCAAACUGUCCAUUCCAGCAGCUCCUGCCCCCUUCUCUGUACUUGCUUCUGUCUGACACCUUGGAAUUCUCGGGUGCCAA; result = 0.819
Strand = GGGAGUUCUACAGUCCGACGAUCUAUUUUCAUCAAUUCUGUGCCCAGUGCAUGUAAUAACAAAGAUUUAAAUUUCAUUGUUUAAUGAAAGGGCAAGUCAAAUGCUUGCCCCAAAUUUAAUACAUGUGAUUUGUUGGAAUUCUCGGGUGCCAA; result = 0.599

Repeated from above (set 2):
Strand = CCCGCCTC; result = 0.27
Strand = CGTGTCCC; result = 0.343
Strand = CGGCATGA; result = 0.276
Strand = CTCGTGCC; result = 0.399
Strand = GCATGTAC; result = 0.382
Strand = CAACATGC; result = 0.353
Strand = ACCCCAAA; result = 0.263
Strand = ACCATGTG; result = 0.484
